Measurements pooled from the literature.
Every numbered part comes from another study and shows a few of its results, in no order. Changes are numbered by the printed parent chain.

Study 1 — technique: DHFR PCA, deep sequencing; medium: yeast; together with: (+)-ABA 1.4 µM; baseline: wild-type fitted maximum; reading: higher = stronger binding
Target: ABI1, truncated, D143A, DHFR fusion (Arabidopsis thaliana)
Notes: methotrexate growth selection, single substitutions
Starting sequence: PYL1, truncated, DHFR fusion (Arabidopsis thaliana); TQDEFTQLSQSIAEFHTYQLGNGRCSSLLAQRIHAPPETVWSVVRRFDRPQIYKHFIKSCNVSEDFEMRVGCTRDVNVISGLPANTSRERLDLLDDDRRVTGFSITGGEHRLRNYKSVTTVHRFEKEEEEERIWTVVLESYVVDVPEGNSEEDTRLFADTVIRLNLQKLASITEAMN
Variant | relative binding score [%]
H110W | 69.3
S117Q | 10.8
G21H | 35.1
N149C | 31.7
G81D | -9.92
D95W | -18.7
E125A | 66
S150A | 16.6
V44Q | -4.3
V142P | -6.16
R46S | 14.3
E131N | 73.8
E152C | 25.6
I52N | 20.8
T160N | 8.47
S59A | 34.3
V76H | 0.715
E67D | 52.3
C72T | 30.5
S150Q | 5.8
Q31F | -14.2
P50N | -12.5
F15L | 14.7
T119G | -3.15
F47K | -4.92

Study 2 — technique: RNA Bind-n-Seq; form: RNA; medium: in vitro; concentration: 200 nM; notes: whole 134-nt RNA, ends assumed; together with: 150 mM KCl; baseline: input library; reading: higher = stronger binding
Target: Fragile X messenger ribonucleoprotein 1, C-terminal low-complexity region (Fmr1, Mus musculus, UniProt P35922)
All sequences stand within: GGGAGUUCUACAGUCCGACGAUC … UGGAAUUCUCGGGUGUCAAGG
Sequence | log2 enrichment
UCCUGUGCUACACAUCGUAUGUACCGAAUCGGCCCCCCGGCCCCCCGGGGCCCCCCGGGAAAGUAUUAUGUUACGCCGUUCGGAUCUGCA | -0.364
ACCAUGCAGGUGGGCAUCUUUGGGAAGUGGGGCAAGGGGGGGAUAGGGAGGGGGGUAACACUUUAAAAACAGGUGGUCCCAGGUCGUUUC | 0.646
CAAGUCCUGUGCUACACAUCGUAUGUACCGAAUCGGAAAGGGGAAAGGGAAAGGGGAAAGUAUUAUGUUACGCCGUUCGGAUCUGCACUU | 0.296
UGGGAGGUGGAUUUUGUUUAUUUUUUUAGCUCAUUUCCAGGGGUGGGAAUUUUUUUUUAAUAUGUGUCAGGAAUAAAGUUGUUUUUGAAA | 0.509
UGGCCCUGGUGGCAUGCGGGGAGGAAGAGGUGGCCUCAUGGAUCAUGGUGGUCCCGGUGGAAUGUUCAGAGGUGGCCGUGGUGGAGACAG | -0.126
UGGGAGGUGGAUUUUGUAUAUUUUUUUAGCUCAUUUCCAGGGGUGGGAAUUUUUUUUUAAUAUGUGUCAUGAAUAAAGUUGUUUUUGAAA | 0.358
AGUCCUGUGCUACACAUCGUAUGUACCGAAUCGGGGUUUUUGGGGUUUGGGGUGGGGAAAGUAUUAUGUUACGCCGUUCGGAUCUGCACU | 1.06
CACAGACAACACGCACCCACACAGACACAGAGGGAAGGGGUUGGGAUGGGGACAGGGUGCACAGCAGGGCGGGGUAGGACCCCAGCCAAA | 1.3
AAGUCCUGUGCUACACAUCGUAUGUACCGAAUCGGAAAAGGGAAAAGGGAAAAGGGGAAAGUAUUAUGUUACGCCGUUCGGAUCUGCACU | -0.0348
GUCCUGUGCUACACAUCGUAUGUACCGAAUCGGGUUUGGGAAAAAGGGAAAAAAAGGGAAAGUAUUAUGUUACGCCGUUCGGAUCUGCAC | -0.247
UGGCCGGUGGCCGUGAGAACACGCUGUGUGGCUGAAAAGUGAAGGCAAGAGCUGAUUUGGCCUCUGUGCUCCCCUCCGCAAGGGGAUCGU | -0.721
UCCUGUGCUACACAUCGUAUGUACCGAAUCAAACCCCCCCAAAUUUAAAUUUUUUUAAAAAAGUAUUAUGUUACGCCGUUCGGAUCUGCA | 0.457
UGGCCCUGGUGGCAUGCGGGGAGGAAGAGGUGGCCUCAUGGAUCGUGGUGGUCCCGGUGGAAUGUUCAAAGGUGGCCGUGGUGGAGACAG | 0.19
GUCCUGUGCUACACAUCGUAUGUACCGAAUCGGCCCCCGGGCCCCCGGGGCCCCCGGGAAAGUAUUAUGUUACGCCGUUCGGAUCUGCAC | -0.544

Study 3 — target: CCNE1, cyclin fold, Cln2 fusion (human); technique: yeast growth competition, sequencing; medium: yeast; notes: strong parent motif; baseline: not given; reading: higher = stronger binding
Starting sequence: E2F1 docking peptide (human); PPVKRRLDFETDH
Variant | normalised enrichment score
PPVKRELDFETDH [R6E] | 3.09
PPVKRRLDCETDH [F9C] | 0.388
PPVGRRLDFETDH [K4G] | 2.05
PPVKRRLDMETDH [F9M] | 2.71
PPVKRRLWFETDH [D8W] | 6.82
PPIKRRLDFETDH [V3I] | 2.68
PPVKRRLDFETNH [D12N] | 6.48
PPVIRRLDFETDH [K4I] | 5.19
PPVKRRLSFETDH [D8S] | 5.59
PPVKRRLDFEKDH [T11K] | 5.65
PPVKRKLDFETDH [R6K] | 5.96
PPVKRRLDFETAH [D12A] | 6.76
PPVKRRLDFGTDH [E10G] | 6.66
PPVKRRLDFEFDH [T11F] | 6.6
PPVKRRLDDETDH [F9D] | -0.0399
PVVKRRLDFETDH [P2V] | 5.92
PPVKRALDFETDH [R6A] | 4.35
PPVMRRLDFETDH [K4M] | 4.99
PPVKRILDFETDH [R6I] | 5.99
PPVKRRKDFETDH [L7K] | 0.143
PPVKRRLDFECDH [T11C] | 5.99
PPVKRRLDIETDH [F9I] | 0.898
PPVVRRLDFETDH [K4V] | 6.09
PPVKRRLDFQTDH [E10Q] | 6.16
PPVKRRLDFITDH [E10I] | 5.98

Study 4 — technique: RNA Bind-n-Seq; form: RNA; medium: in vitro; concentration: 365 nM; baseline: no-protein control; reading: higher = stronger binding
Target: RNA binding protein fox-1 homolog 2, RRM domain, GST-SBP tag (RBFOX2, Homo sapiens, UniProt O43251-10, residues 100-194)
Notes: natural RNA segment, single round, ends assumed
All sequences stand within: GGGAGUUCUACAGUCCGACGAUC … UGGAAUUCUCGGGUGCCAA
Construct (chain): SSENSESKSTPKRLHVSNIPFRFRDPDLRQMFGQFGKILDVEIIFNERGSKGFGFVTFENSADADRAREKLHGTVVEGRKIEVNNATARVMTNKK
Sequence | RBNS enrichment (R)
GGUCUCAUGGACCAUAGAACUCACAGUACCUGGAUCUGCCCAGCAUGCCCUUUGGACCCAGUUCCCACCGAGGCCCCAGCAGAGUGGAGGGCACAACACUUUCAUUCAGC | 24.4
UUUUGACCUUUUCAAAUAAAUAUGGAUGGCGAGCUCCUAGGCCUCUGGCUUCCUGGUAGAGGGCGGCAUGCCGAAGGGUCUGCUGGGUGUGGAUUGGAUGCUGGGGUGUG | 1.17
UAAUUGGUUUAAAAACACAGUAAAUUUACUGGCUUAUAAAGCUGAAAAAGCCUAGGAGUACUGGCAGUGGAUGAACAAUUUCACCAAACAUCCAGCUUUUUUCCUGCCUC | 0.298
UGGGCAGCGAUAGAGGCCAAGUAUCUUGUGGGCACUCCUGCCUAACCCUGCAUUGGGAUAUCGAAGCACUGCUUAGGUUCUGAGGUGUGGGUUCCCUGCCACCCAGGCAA | 0.173
AUGGCGCUAGGGCUCUCAGCCUCCUAGAAGGAAGGGACUAAGGAGACGGGCACAGACUUGCGUCAUCUCGUUUCCACAGUUGACGUUUUAUAUUACUUUCUCAAAUUAAG | 0.566
AAUGCUGGUAUUUGAUUUCCUGUGUGUGUUGCCCUGGCAUUAAGGGCAUUUUACCCUUGCAGUUUUACUAAAACACUGAAAAAUAUUCCAAGCUUCAUAUUAACCCUACC | 0.56
AGUGAGCACUAGGACAGCUGGGGGCUGCGUCAGGCUACUGGCUUCCUGUGUUCUCACCACUGUCCCUCUAGCCCUGACUGCAAGUAUGCAGUGCUGGAUGACGGGCAGUG | 0.642
UUUUAAAGGGGGGAAAUAACAUCCAAGUCUGAUUAGAACCGCCCAUCAGUUGUUCUUGGAAGUUUUUAGAAGACCUCACGGACUUUGCAGUUUAUUUUUCUUGGCCAACA | 1.05
CCUCCCUCCUCAUCUUGCCGUCCCACUGGGGUGCUAGGAAAUCCAGGAUGACGGCUGCUCUGAUAUGGUGCUCUUCUGAGGUGGCAUAAGGGCUGGCCCUUAUUUGCUCU | 0.679
UUUGUUUUCCCAGAGGCUGCCAUAUGGUCUUUGAGUACGGGGAUGUCCCAAACUGGCCCACCAAUGAGCAUGGCGGCUCCGGCCAGGAAUGCCAGAGUUAGCCUCCCAGG | 0.269
AUCUAAUUCAGUAUAGAAUAUGCUGUUUGGCAAUGAGUUUGUGGCCAGAUUUCAAAUAGGGAGUUAAGUGGUACUUUCACAAUCCAAAGAUUUUUAGUUAAAAAUCAUGU | 0.474
CCUGUCUCCAAAGGACCGGCUCUCCAUGGCUCCUGCGCCUCGUGCUUUCCGCGUACAGAAGUGCUUGCCCGGGGAGUCCCGCCUGACCUGCCUUCAUGUGGACCCUUAGA | 0.325

Study 5 — technique: universal PBM; form: double-stranded DNA, one strand shown; medium: in vitro; concentration: 600 nM; reading: higher = stronger binding
Target: Sal-like protein 4, full length isoform A (SALL4, Homo sapiens, UniProt Q9UJQ4, residues 1-1053)
Chain of UniProt Q9UJQ4 (whole entry, looked up): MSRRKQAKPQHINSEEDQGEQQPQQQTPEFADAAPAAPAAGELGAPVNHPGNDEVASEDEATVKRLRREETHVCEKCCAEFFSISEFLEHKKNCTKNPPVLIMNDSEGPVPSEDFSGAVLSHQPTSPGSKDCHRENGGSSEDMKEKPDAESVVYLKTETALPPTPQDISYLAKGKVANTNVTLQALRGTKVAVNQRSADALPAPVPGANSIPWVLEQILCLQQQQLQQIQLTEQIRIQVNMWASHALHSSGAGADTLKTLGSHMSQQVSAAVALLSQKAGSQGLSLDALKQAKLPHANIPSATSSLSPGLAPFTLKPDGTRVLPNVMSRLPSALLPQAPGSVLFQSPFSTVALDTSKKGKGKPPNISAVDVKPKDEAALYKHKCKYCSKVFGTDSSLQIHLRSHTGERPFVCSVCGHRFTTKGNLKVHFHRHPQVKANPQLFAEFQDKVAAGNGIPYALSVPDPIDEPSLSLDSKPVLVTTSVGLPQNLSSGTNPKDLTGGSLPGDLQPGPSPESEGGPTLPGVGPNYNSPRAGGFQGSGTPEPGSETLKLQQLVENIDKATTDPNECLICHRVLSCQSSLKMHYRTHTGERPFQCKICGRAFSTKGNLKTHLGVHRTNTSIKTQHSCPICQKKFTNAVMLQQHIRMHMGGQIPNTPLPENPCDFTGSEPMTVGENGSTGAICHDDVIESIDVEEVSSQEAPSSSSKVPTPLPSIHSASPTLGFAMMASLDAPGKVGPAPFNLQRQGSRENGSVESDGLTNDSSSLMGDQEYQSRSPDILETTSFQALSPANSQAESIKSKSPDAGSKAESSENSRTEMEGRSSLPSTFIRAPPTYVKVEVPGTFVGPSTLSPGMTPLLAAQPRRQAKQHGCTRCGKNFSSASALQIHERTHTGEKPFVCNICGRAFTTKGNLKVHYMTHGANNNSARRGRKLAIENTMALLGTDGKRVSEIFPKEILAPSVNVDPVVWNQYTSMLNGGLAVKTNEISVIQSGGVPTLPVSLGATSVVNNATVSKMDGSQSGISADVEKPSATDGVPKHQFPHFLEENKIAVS
Notes: 8-mer, flanks averaged, mean of replicates
Sequence | E-score
TGAGCACA | -0.0135
AGATCAAT | 0.126
AAGGTTCA | -0.0137
GGCTGAGA | -0.127
AGGAGCAA | -0.0658
AGGTAACG | -0.0645
ATAAAACG | 0.257
AGACAAAG | 0.0325
TGTTCTAA | 0.284
GCGAATGA | 0.171
AGACGGTA | 0.0192
CCCTCACA | -0.0988
ATGTGGTG | 0.0182
CTGCGAAG | -0.213
CGAGGTCC | -0.343
GACTCACC | -0.11
GGAGATAA | 0.183
ACGGACAA | -0.0372
AGAGGTAT | 0.217
CGGATGAA | 0.101
GCTCGAGC | -0.0496
AATGCGTG | 0.0894
CTTTAACA | 0.255
AGGATGAA | 0.0716
CTATTTAC | 0.12
